# Published values of several laboratories.
# ± marks the error that the study gave.
Structure (SMILES),assay,system,setting,scale,measurement,value
Nc1ccn([C@@H]2O[C@H](CO)[C@@H](O)C2(F)F)c(=O)n1,HPLC-UV,"human, plasma","800 mg/m^2, mean, before paricalcitol",,volume of distribution,334 L/m²
CN(C)N=Nc1[nH]cnc1C(N)=O,,"human patients, plasma","intravenous infusion, 1000 mg/m^2, 1 h infusion, cycle 1 day 1, alone",,Vz,34.4 L/m²
CCOc1c([C@H](C)n2nc(C)c3c(N)ncnc32)cc(Cl)c(F)c1[C@@H]1CNC(=O)C1,refers to: QTcF change ≤30 ms,previously treated B-cell malignancy,"oral, 5 mg once daily, overall population",relative to: baseline,ECG observations,60%
COC(=O)N[C@@H](C)CNc1nccc(-c2cn(C(C)C)nc2-c2cc(Cl)cc(NS(C)(=O)=O)c2F)n1,,"human, plasma","oral, single dose, with: posaconazole",relative to: compound alone,AUCinf geometric mean ratio,283%
CSCC[C@H](NC(=O)[C@H](CCCCN)NC(=O)[C@H](CCCNC(=N)N)NC(=O)[C@H](CO)NC(=O)[C@H](Cc1c[nH]c2ccccc12)NC(=O)[C@H](CCCNC(=N)N)NC(=O)[C@@H](CC(C)C)NC(=O)[C@@H](N)CCSC)C(=O)N1CCC[C@H]1C(=O)N[C@@H](CS)C(=O)N[C@H](C(=O)N[C@@H](CO)C(N)=O)C(C)C,"12G5 competition, SUP-T1 cells",human plasma,"concentration not given, 8 h",,remaining activity,77 ± 24%
O=C1NCCc2nc(OCc3cccc(F)c3)ccc21,refers to: Salivation,Sprague-Dawley rat male,"oral, 100 mg/kg, 4 h",direction not given,Irwin test score,0
C[C@]12CC[C@@H]3c4ccc(O)cc4CC[C@H]3[C@@H]1CCC2=O,,whole cow milk,200 nM nominal,,dose fraction in milk fat,72.9%
CN1CCN(C(=O)c2ccc(C3CCCCC3)cc2)CC1,liver microsome stability,mouse liver microsomes,1 µM,,hepatic clearance,86 mL/min/kg
NC1(C(=O)N[C@@H](CCO)c2ccc(Cl)cc2)CCN(c2nc[nH]c3nccc2-3)CC1,,metastatic CRPC patients,"400 mg b.i.d., grade 3 to 4, treatment-related, with: enzalutamide 160 mg daily",,incidence of Vomiting,0%
COc1ccc2c(c1)CN(C(=O)CCN1CCC(Cc3ccccc3)CC1)CC[S@@+]2[O-],telemetry,conscious male beagle dogs,"intravenous, 2 mg/kg, 24 h",,QT interval,212 ± 21 ms
CC(C)c1nc(N(C)S(C)(=O)=O)nc(-c2ccc(F)cc2)c1/C=C/[C@@H](O)C[C@@H](O)CC(=O)O,,"healthy human volunteers, plasma","oral, dose not given, BCRP probe substrate, with: momelotinib",relative to: compound alone,AUCinf ratio,273%
O=S(=O)(On1nnc2ccccc21)c1cc(C(F)(F)F)cc(C(F)(F)F)c1,"chemical stability, HPLC-MS",borate buffered saline,"pH 10.2, no N-acetyl-lysine",,degradation rate constant,2 h⁻¹
COc1ccnc(C(=O)NC(CO)C(=O)O)c1O (racemic),soil adsorption,tested soils,geometric mean,,KFoc,315 mL/g
CNC(=O)c1ccc(-c2cnc3ncc(Cc4ccc5ncccc5c4)n3n2)cc1F,refers to: Pruritus,gastric cancer patients,"oral, 600 mg twice daily, expansion cohort, grade 3-4",,patients with adverse event,0%
CN1C(=O)[C@@H](NC(=O)c2nnc(Cc3ccccc3)[nH]2)COc2cccnc21,phase I single ascending dose,"human, male and female","oral, 10 mg, fasted",,TEAE leading to permanent discontinuation,0%
COc1ccnc(C(=O)NCC(=O)O)c1O,soil adsorption,tested soils,geometric mean,,KFoc,388 mL/g
Cc1cc(-c2nnc(N)nc2-c2ccc(F)cc2)cc(Cl)n1,"refers to: decreased appetite, any grade",IO-naive patients with other tumours,"oral, 100 mg once daily",,incidence of treatment-related AE,26.3%
CC(=O)O[C@H]1C(=O)[C@@]2(C)[C@H]([C@H](OC(=O)c3ccccc3)[C@]3(O)C[C@H](OC(=O)[C@H](O)[C@@H](NC(=O)c4ccccc4)c4ccccc4)C(C)=C1C3(C)C)[C@]1(OC(C)=O)CO[C@@H]1C[C@@H]2O,refers to: Vomiting,patients with advanced solid tumours,"intravenous, dose not given, all grades, possibly related to drug",,adverse event incidence,24%
COCCC(=O)Nc1ccc(C2CCCCC2)cc1,liver microsome stability,mouse liver microsomes,1 µM,,hepatic clearance,87 mL/min/kg
C=CCn1c(=O)c2cnc(Nc3ccc(N4CCN(C)CC4)cc3)nc2n1-c1cccc(C(C)(C)O)n1,,human patients,"oral, 300 mg once daily, day 17, cycle 1, with: durvalumab 1500 mg iv",,AUC(0-10 h),7.98 µM·h
CCc1c(-c2ccccc2)c(-c2ccccc2)nn1-c1ccccc1-c1cccc(OCC(=O)O)c1,,"female Sprague-Dawley rat, uterus homogenate","oral, 10 mg/kg, 1 h",,concentration,197 ng/mL
COc1ncc(-c2nc3c(n2C(C)C)[C@H](c2ccc(Cl)cc2)N(c2cc(Cl)cn(C)c2=O)C3=O)c(OC)n1,,"human patients, plasma","oral, 20 mg, low-dose arm, cycle 2 day 1",,median half-life,11.5 h
Cc1cc(C)c(CNC(=O)c2cc(Cl)c3c(c2C)O[C@@](C)([C@H]2CC[C@H](N(C)C)CC2)O3)c(=O)[nH]1,,"human, plasma","oral, 200 mg, up to 0008 (unit not given)",,share of plasma radioactivity,95.9%
CNC(=O)c1ccc(-c2cnc3ncc(Cc4ccc5ncccc5c4)n3n2)cc1F,,healthy human subjects,"oral, 200 mg, grade 3, all causality, with: itraconazole 200 mg/day",,subjects with adverse events,11.1%
COc1cc2nccc(Oc3ccc(NC(=O)c4cc5c(n(-c6ccccc6)c4=O)CCCC5=O)nc3)c2cc1OC,,relapsed or refractory AML,"oral, 10 mg once daily",,grade ≥3 Fatigue patients,0%
CC(=O)OC[C@H]1OC(OC(C)=O)[C@@H](NC(=O)CN=[N+]=[N-])[C@@H](OC(C)=O)[C@@H]1OC(C)=O (stereo partly shown),refers to: RBC and WBC,C57BL/6 mouse,"dose not given, day 0.5 to 7.5",relative to: PBS,blood cell counts,no effect
CC[C@@H]([C@H](C)O)n1ncn(-c2ccc(N3CCN(c4ccc(OC[C@@H]5CO[C@@](Cn6cncn6)(c6ccc(F)cc6F)C5)cc4)CC3)cc2)c1=O,,rat plasma,"1600 ng/mL, 3 h, room temperature",relative to: nominal concentration,stability relative error,0.3%
O=C(Cn1ccnc1)Nc1ccc(C2CCCCC2)cc1,,dog liver microsomes,1 µM,,hepatic clearance,23 mL/min/kg
C=CC(=O)NC1CCN(c2ncc3ncnc(Nc4ccc(Oc5ccc6c(c5)ncn6C)c(C)c4)c3n2)CC1,,"human, male, plasma","oral, 30 mg, fed, adjusted geometric mean",,AUC(0-tz),4.18 µM·h
CC(=O)N1CC(C(=O)Nc2ccc(C3CCCCC3)cc2)C1,liver microsome stability,rat liver microsomes,1 µM,,hepatic clearance,45 mL/min/kg
N#Cc1ccc2c(c1)[C@H]1CCCN(C(=O)c3ccc4[nH]cnc4c3)[C@H]1C2,,"human, plasma","oral, 80 mg once daily, steady state",,Vz/F steady state,457 L
CC(C)(C(=O)N1CCOc2c(C#N)cncc2C1)C(F)F,refers to: musculoskeletal disorders,"healthy humans, both sexes","oral, 20 mg single dose",,share of subjects with TEAE,0%
CCN1/C(=C/C(C)=O)Sc2ccc(F)cc21,,cynomolgus monkey,"oral, 100 mg/kg, 4 h post-dose",,mean blood pressure,90 ± 2 mmHg
Cc1ccc([C@@H]2O[C@H](CO)[C@@H](O)[C@H](O)[C@H]2O)cc1Cc1ccc(-c2ccc(F)cc2)s1,refers to: inorganic phosphorus,Japanese type 2 diabetes patients,"25 mg, day 3, 24 h urine collection",relative to: baseline,urinary phosphate excretion change,-140 mg
CCC(C)n1ncn(-c2ccc(N3CCN(c4ccc(OCC5COC(Cn6cncn6)(c6ccc(Cl)cc6Cl)O5)cc4)CC3)cc2)c1=O (stereo not shown),,"human, plasma","oral, dose not given, day 11 predose, mean",,trough plasma concentration,34.9 ng/mL
CC(=O)N1CC(C(=O)Nc2ccc([C@H]3[C@@H](F)[C@@H](F)C[C@@H](F)[C@H]3F)cc2)C1,liver microsome stability,cynomolgus liver microsomes,1 µM,,hepatic clearance,4.9 mL/min/kg
CN(Cc1cnc2nc(N)nc(N)c2n1)c1ccc(C(=O)N[C@@H](CCC(=O)O)C(=O)O)cc1,lipid PAMPA,,"10 µM, 16 h, pH 7.4, 25 °C",,-log Pe,> 8.99
CO[C@H]1C[C@@H]2CC[C@@H](C)[C@@](O)(O2)C(=O)C(=O)N2CCCC[C@H]2C(=O)O[C@H]([C@H](C)C[C@@H]2CC[C@@H](OC(=O)NCCOCCOCCOCCOCCOCCOCCOCCOCCC(=O)N3CCc4cc(Cn5nc(-c6ccc7oc(N)nc7c6)c6c(N)ncnc65)ccc4C3)[C@H](OC)C2)C[C@@H](O)[C@H](C)/C=C(\C)[C@@H](O)[C@@H](OC)C(=O)[C@H](C)C[C@H](C)/C=C/C=C/C=C/1C,,"human, plasma","intravenous, 10 mg, Cycle 1, 1 h infusion, arithmetic mean",relative to: Day 15 over Day 1,AUClast accumulation ratio,1.4
C=CC(=O)Nc1cc(Nc2nccc(-c3cn(C4CC4)c4ccccc34)n2)c(OC)cc1N(C)CCN(C)C,long-term storage stability,rat plasma,"40 ng/mL, 3 weeks, -80 °C",relative to: nominal concentration,relative error,-0.6%
Cc1c(C(=O)O)ccc2c3n(nc12)[C@@H]1[C@H](C3)N(CC2CC2)[C@@]2(C(=O)Nc3cc(Cl)ccc32)[C@H]1c1cccc(Cl)c1F,,"female BALB/c nude mice, SJSA-1 xenograft, plasma","oral, 1 mg/kg twice daily, 9 h",,plasma concentration,1330 nM
Cc1cn(C(=O)c2c(-c3c(Cl)cc(Cl)cc3Cl)noc2C(C)(C)F)c2cccc(/C=C/C(=O)O)c12,,human patients,"500 mg bid, cycle 1 day 1",,AUC(0-8h),86700 ng·h/mL
CC(C)C[C@@H]1NC(=O)CN(C)C(=O)[C@H](Cc2ccccc2)NCc2ccc([nH]2)CNC1=O,PAMPA,2% lecithin in dodecane,"100 µM, 17 h, pH 6.4, 37 °C",,-log Pe,5.89 + 0.08
O=C(Nc1cnccc1Cl)N1CCN(Cc2ccc3c(c2)OC(F)(F)O3)CC1,multiple ascending dose,young men,"25 mg, treatment-emergent adverse events",,hepatic enzyme increased,0%
Cl.[2H]C([2H])([2H])CC(=O)c1cnc(NC(=O)C2CC2)cc1Nc1cccc(-c2ncn(C([2H])([2H])[2H])n2)c1OC,geometric mean,human,"10 mg once daily, day 1, fasted, liquid, multiple dose",,CL/F,12.7 L/h
O=C([O-])CN1CCN(CC(=O)[O-])CCN([C@H](CO)[C@H](O)CO)CCN(CC(=O)[O-])CC1.[Gd+3] (racemic),ICP-MS,"rat, femur diaphysis","intravenous, 0.6 mmol Gd/kg, 1 week",,Gd concentration,1 nmol/g
O=C(NCc1cc[nH]n1)c1ccc(C2CCCCC2)cc1,liver microsome stability,rat liver microsomes,1 µM,,hepatic clearance,49 mL/min/kg
